# Literature values as cited in several papers.
# Protocols differ between the studies behind these lines. ± gives the spread as reported.
SMILES,target or system,assay,test system,conditions,how to read,measurement,value
OCCN1CCN(CCC=C2c3ccccc3Sc3ccc(C(F)(F)F)cc32)CC1,MCF7,"microarray, measured: TSFM mRNA",,concentration not given,reference: DMSO,log2 fold change,0.71
ClC1=C(Cl)C2(Cl)C3C(Cl)C=CC3C1(Cl)C2(Cl)Cl (centres unmarked),,,,pH 7.4,,logD,5.54
CCCCCc1cc(O)c2c(c1)OC(C)(C)[C@@H]1CCC(C)=C[C@@H]21,,,mice,dose not given,,body temperature reduction,~6 °C
ClC1=C(Cl)[C@]2(Cl)[C@@H]3[C@@H]4C[C@@H]([C@H]5O[C@@H]45)[C@@H]3[C@@]1(Cl)C2(Cl)Cl,,,,pH 7.4,,logD,4.94
N.N.[Cl][Pt][Cl],MCF-10A,,,,,IC50,91 ± 7 µM
CCC(C)(c1ccc(O)cc1)c1ccc(O)cc1,estrogen receptor beta,binding,,,,Kd,0.0798 µM
Nc1ncnc2c1ncn2[C@@H]1O[C@H](COS(N)(=O)=O)[C@@H](O)[C@H]1O,NCI-60 cancer cell lines,cell growth,,,,GI50,0.0018 µM
COc1cccc(C(=O)NN(C(=O)c2cc(C)cc(C)c2)C(C)(C)C)c1C,Anopheles gambiae,,"G3, females","topical, concentration not given",,lifespan,decreased

# A few entries again:
SMILES,target or system,assay,test system,conditions,how to read,measurement,value
CCC(C)(c1ccc(O)cc1)c1ccc(O)cc1,estrogen receptor beta,binding,,,,Kd,0.0798 µM
